# Measured values collected from several papers.
# Lines come from different studies, so protocols differ. Values joined by “and” are separate records of one study, mostly repeats; a detail may differ.
# U2AF2: U2AF2 148-342 (Homo sapiens, UniProt P26368)
# Sequence of UniProt P26368 (whole entry, looked up): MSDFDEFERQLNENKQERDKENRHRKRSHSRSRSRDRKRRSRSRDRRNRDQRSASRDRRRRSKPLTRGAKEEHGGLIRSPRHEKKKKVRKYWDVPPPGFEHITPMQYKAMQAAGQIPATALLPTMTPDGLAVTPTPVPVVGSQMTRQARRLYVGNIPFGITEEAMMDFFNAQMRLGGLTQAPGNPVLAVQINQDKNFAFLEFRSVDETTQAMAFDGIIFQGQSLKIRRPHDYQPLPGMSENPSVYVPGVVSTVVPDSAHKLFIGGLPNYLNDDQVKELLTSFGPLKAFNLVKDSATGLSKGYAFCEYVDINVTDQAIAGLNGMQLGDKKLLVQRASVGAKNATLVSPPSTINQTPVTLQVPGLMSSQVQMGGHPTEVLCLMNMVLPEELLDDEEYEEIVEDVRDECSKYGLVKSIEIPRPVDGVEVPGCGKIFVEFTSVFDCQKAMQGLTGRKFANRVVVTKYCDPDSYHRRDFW
# B1: human TGM1; sequence looked up; chain MMDGPRSDVGRWGGNPLQPPTTPSPEPEPEPDGRSRRGGGRSFWARCCGCCSCRNAADDDWGPEPSDSRGRGSSSGTRRPGSRGSDSRRPVSRGSGVNAAGDGTIREGMLVVNGVDLLSSRSDQNRREHHTDEYEYDELIVRRGQPFHMLLLLSRTYESSDRITLELLIGNNPEVGKGTHVIIPVGKGGSGGWKAQVVKASGQNLNLRVHTSPNAIIGKFQFTVRTQSDAGEFQLPFDPRNEIYILFNPWCPEDIVYVDHEDWRQEYVLNESGRIYYGTEAQIGERTWNYGQFDHGVLDACLYILDRRGMPYGGRGDPVNVSRVISAMVNSLDDNGVLIGNWSGDYSRGTNPSAWVGSVEILLSYLRTGYSVPYGQCWVFAGVTTTVLRCLGLATRTVTNFNSAHDTDTSLTMDIYFDENMKPLEHLNHDSVWNFHVWNDCWMKRPDLPSGFDGWQVVDATPQETSSGIFCCGPCSVESIKNGLVYMKYDTPFIFAEVNSDKVYWQRQDDGSFKIVYVEEKAIGTLIVTKAISSNMREDITYLYKHPEGSDAERKAVETAAAHGSKPNVYANRGSAEDVAMQVEAQDAVMGQDLMVSVMLINHSSSRRTVKLHLYLSVTFYTGVSGTIFKETKKEVELAPGASDRVTMPVAYKEYRPHLVDQGAMLLNVSGHVKESGQVLAKQHTFRLRTPDLSLTLLGAAVVGQECEVQIVFKNPLPVTLTNVVFRLEGSGLQRPKILNVGDIGGNETVTLRQSFVPVRPGPRQLIASLDSPQLSQVHGVIQVDVAPAPGDGGFFSDAGGDSHLGETIPMASRGGA
# B2: gasdermin-A (human); sequence looked up; chain MTMFENVTRALARQLNPRGDLTPLDSLIDFKRFHPFCLVLRKRKSTLFWGARYVRTDYTLLDVLEPGSSPSDPTDTGNFGFKNMLDTRVEGDVDVPKTVKVKGTAGLSQNSTLEVQTLSVAPKALETVQERKLAADHPFLKEMQDQGENLYVVMEVVETVQEVTLERAGKAEACFSLPFFAPLGLQGSINHKEAVTIPKGCVLAFRVRQLMVKGKDEWDIPHICNDNMQTFPPGEKSGEEKVILIQASDVGDVHEGFRTLKEEVQRETQQVEKLSRVGQSSLLSSLSKLLGKKKELQDLELALEGALDKGHEVTLEALPKDVLLSKEAVGAILYFVGALTELSEAQQKLLVKSMEKKILPVQLKLVESTMEQNFLLDKEGVFPLQPELLSSLGDEELTLTEALVGLSGLEVQRSGPQYMWDPDTLPRLCALYAGLSLLQQLTKAS
# B3: human archaemetzincin-2; sequence looked up; chain MQIIRHSEQTLKTALISKNPVLVSQYEKLNAGEQRLMNEAFQPASDLFGPITLHSPSDWITSHPEAPQDFEQFFSDPYRKTPSPNKRSIYIQSIGSLGNTRIISEEYIKWLTGYCKAYFYGLRVKLLEPVPVSVTRCSFRVNENTHNLQIHAGDILKFLKKKKPEDAFCVVGITMIDLYPRDSWNFVFGQASLTDGVGIFSFARYGSDFYSMHYKGKVKKLKKTSSSDYSIFDNYYIPEITSVLLLRSCKTLTHEIGHIFGLRHCQWLACLMQGSNHLEEADRRPLNLCPICLHKLQCAVGFSIVERYKALVRWIDDESSDTPGATPEHSHEDNGNLPKPVEAFKEWKEWIIKCLAVLQK
# B4: human RNA helicase DHX15; sequence looked up; chain MSKRHRLDLGEDYPSGKKRAGTDGKDRDRDRDREDRSKDRDRERDRGDREREREKEKEKELRASTNAMLISAGLPPLKASHSAHSTHSAHSTHSTHSAHSTHAGHAGHTSLPQCINPFTNLPHTPRYYDILKKRLQLPVWEYKDRFTDILVRHQSFVLVGETGSGKTTQIPQWCVEYMRSLPGPKRGVACTQPRRVAAMSVAQRVADEMDVMLGQEVGYSIRFEDCSSAKTILKYMTDGMLLREAMNDPLLERYGVIILDEAHERTLATDILMGVLKEVVRQRSDLKVIVMSATLDAGKFQIYFDNCPLLTIPGRTHPVEIFYTPEPERDYLEAAIRTVIQIHMCEEEEGDLLLFLTGQEEIDEACKRIKREVDDLGPEVGDIKIIPLYSTLPPQQQQRIFEPPPPKKQNGAIGRKVVVSTNIAETSLTIDGVVFVIDPGFAKQKVYNPRIRVESLLVTAISKASAQQRAGRAGRTRPGKCFRLYTEKAYKTEMQDNTYPEILRSNLGSVVLQLKKLGIDDLVHFDFMDPPAPETLMRALELLNYLAALNDDGDLTELGSMMAEFPLDPQLAKMVIASCDYNCSNEVLSITAMLSVPQCFVRPTEAKKAADEAKMRFAHIDGDHLTLLNVYHAFKQNHESVQWCYDNFINYRSLMSADNVRQQLSRIMDRFNLPRRSTDFTSRDYYINIRKALVTGYFMQVAHLERTGHYLTVKDNQVVQLHPSTVLDHKPEWVLYNEFVLTTKNYIRTCTDIKPEWLVKIAPQYYDMSNFPQCEAKRQLDRIIAKLQSKEYSQY
# Sequence of UniProt Q00535 (whole entry, looked up): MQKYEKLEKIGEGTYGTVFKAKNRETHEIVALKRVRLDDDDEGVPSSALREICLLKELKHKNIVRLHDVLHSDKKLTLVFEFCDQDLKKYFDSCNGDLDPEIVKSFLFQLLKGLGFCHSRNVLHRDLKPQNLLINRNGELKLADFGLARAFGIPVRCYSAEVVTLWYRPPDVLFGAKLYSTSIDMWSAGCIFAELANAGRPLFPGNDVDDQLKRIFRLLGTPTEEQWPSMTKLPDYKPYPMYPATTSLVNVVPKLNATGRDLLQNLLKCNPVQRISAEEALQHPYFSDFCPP
Substance,target or system,test,system,conditions,scale,quantity,value
GGWVEKETYY,"construct, MBP fusion, human SCRIB, PDZ 3-4",automated holdup,"peptide, purified PDZ protein","concentration not given, unit not given","relative to: biotin control resin, higher = stronger binding",binding intensity,0.0495
B1 (human TGM1),PP6C (human),"co-immunoprecipitation, IP-MS",CYB5R4 knockout cells,concentration not given,relative to: CYB5R4 knockout over parental,log2 fold change,0.91
VVVGASGVGK,HLA-A*11:01 peptide-β2M single-chain trimer,"western blot, measured: pMHC-I","peptide, 293T cells","24 h, unit not given, with: 100 µg/mL cycloheximide",relative to: time zero,remaining protein,0.616 and 0.596 and 0.583
CXCL10,human LFA-1 (αLβ2),LFA-1 activation,memory T cells,"80 ng/mL, with: ICAM-1",relative to: ICAM-1 untreated,KIM127 epitope expression,32.6%
KEIFWDRCLSVINLMSSKMLQINA,"Cyclin-dependent kinase 5, with p25 (CDK5, Homo sapiens, UniProt Q00535)","phosphotransferase activity, radiometric",peptide,"concentration not given, 10% DMSO, with: histone substrate",relative to: p5-WT peptide,activity change,37%
GUUUUUCAU (ssRNA),U2AF2,sequencing of bound RNA,RNA,motif only,,Kd,1470 nM
epoetin alfa,UT7/EPO,"phosphorylation, agonist, measured: phospho-p38",,10 min,,EC50,0.003 nM
human heat shock protein beta-1,PP6C (human),"co-immunoprecipitation, IP-MS",CYB5R4 knockout cells,concentration not given,relative to: CYB5R4 knockout over parental,log2 fold change,0.51
CUAAUUUUU (ssRNA),U2AF2,sequencing of bound RNA,RNA,motif only,,Kd,17000 nM
GSGAGHETIV,"construct, MBP fusion, human SCRIB, PDZ 3-4",automated holdup,"peptide, crude extract","concentration not given, corrected by standard peak, unit not given","relative to: biotin control resin, higher = stronger binding",binding intensity,0.198
maraviroc,Tau,,"mice, NSG hu-PBL, HIV-infected, brain SSC and FC regions","ip, 120 mg/kg twice daily, 3 weeks post-infection, normalized to β-actin",relative to: untreated HIV-infected mice,total Tau level,no effect
EKPIDSETKM,"construct, MBP fusion, human SCRIB, PDZ 3-4",surface plasmon resonance,peptide,concentration not given,higher = stronger binding,normalised SPR binding response,0 normalised RU
B2 (gasdermin-A),PP6C (human),"co-immunoprecipitation, IP-MS",CYB5R4 knockout cells,concentration not given,relative to: CYB5R4 knockout over parental,log2 fold change,-0.15
"phosphatidylinositol 4,5-bisphosphate",adenosine A2A receptor thermostabilised,equilibrium dialysis LC-MS,,"5 µM, normalised z-score",relative to: no protein,log2 fold change,0.56
VVVGAVGVGK,HLA-A*11:01 peptide-β2M single-chain trimer,"western blot, measured: pMHC-I","peptide, 293T cells","6 h, unit not given, with: 100 µg/mL cycloheximide",relative to: time zero,remaining protein,0.936 and 0.89 and 0.934
B3 (human archaemetzincin-2),PP6C (human),"co-immunoprecipitation, IP-MS",CYB5R4 knockout cells,concentration not given,relative to: CYB5R4 knockout over parental,log2 fold change,-1.78
QDEKVKESYV,"construct, MBP fusion, human SCRIB, PDZ 3-4",automated holdup,"peptide, crude extract","concentration not given, corrected by standard peak, unit not given","relative to: biotin control resin, higher = stronger binding",binding intensity,0.531
B4 (human RNA helicase DHX15),PP6C (human),"co-immunoprecipitation, IP-MS",CYB5R4 knockout cells,concentration not given,relative to: CYB5R4 knockout over parental,log2 fold change,-0.82
GSGAGIATEV,"construct, MBP fusion, human SCRIB, PDZ 3-4",surface plasmon resonance,peptide,concentration not given,higher = stronger binding,normalised SPR binding response,15.3 normalised RU
hydroxysafflor yellow A,Nrf2,"Nrf2 induction, inducer",,,relative to: control,fold induction,0.99 fold
GSGAGKETEC,"construct, MBP fusion, human SCRIB, PDZ 3-4",automated holdup,"peptide, crude extract","concentration not given, corrected by standard peak, unit not given","relative to: biotin control resin, higher = stronger binding",binding intensity,0.338
alpinetin,BSA glycation,fluorescence,,"concentration not given, with: methylglyoxal",,inhibition,25.2% and 29%

# Repeated from above:
Substance,target or system,test,system,conditions,scale,quantity,value
KEIFWDRCLSVINLMSSKMLQINA,"Cyclin-dependent kinase 5, with p25 (CDK5, Homo sapiens, UniProt Q00535)","phosphotransferase activity, radiometric",peptide,"concentration not given, 10% DMSO, with: histone substrate",relative to: p5-WT peptide,activity change,37%
GUUUUUCAU (ssRNA),U2AF2,sequencing of bound RNA,RNA,motif only,,Kd,1470 nM
hydroxysafflor yellow A,Nrf2,"Nrf2 induction, inducer",,,relative to: control,fold induction,0.99 fold
